Assay results of several laboratories.
A part holds a random share of what one study measured.

Study 1
Target: Interferon regulatory factor 5, full length, phosphomimetic (IRF5, Homo sapiens, UniProt Q13568-2, residues 1-514, S451D/S453D/S456D/S462D)
Method: protein-binding microarray
Form: double-stranded DNA, one strand shown
Sample: in vitro
Tested at: 940 nM top
Notes: 60-bp whole probe
Together with: salmon DNA 0.4 mg/ml
Baseline: random background probes
Reading: higher = stronger binding
All sequences stand within: GCCTAGCAC … GTCTTGATTCGCTTGACGCTGCTG
`TTAGGTCTCCTTTTCCTATAGTGCTAG` — result for “fitted relative affinity”: 0.801 z-score.
For `TTAGCACTGGGTATCGGTTAGTGCTAG`, “fitted relative affinity” read 3.39 z-score.
`GACGGTTTCCGGACTGGGGACGTGCTA` — result for “fitted relative affinity”: 0.498 z-score.
For `TTAGGTTTCCTTCTTCTTTAGTGCTAG`, “fitted relative affinity” read 2.17 z-score.
`TCTGTTTTTGCTTTCCTTCAGTGCTAG` — result for “fitted relative affinity”: 2.02 z-score.
For `TGAGGTATCGGGTTTCGGTTAGTGCTA`, “fitted relative affinity” read 7.26 z-score.
For `GACGGTTTCGAGACTGGGGACGTGCTA`, “fitted relative affinity” read 6.41 z-score.
For `GAAGGTTCCCTTTTCCTGACGTGCTAG`, “fitted relative affinity” read 0.824 z-score.
For `TTAGGACTGGGTATCGGGTAGTGCTAG`, “fitted relative affinity” read 1.35 z-score.
Under “fitted relative affinity”, `TGAGATCTCAGTTTCGATTAGTGCTAG` is recorded as 8.87 z-score.
Under “fitted relative affinity”, `TTGTGTCTGGGCTTTTTCCCCGTGCTA` is recorded as -0.728 z-score.
`GACGGACTCGGTCTCGGGACGTGCTAG`: “fitted relative affinity” 0.248 z-score.
For `TATGGTATTTTTTTCTAATTGTGCTAG`, “fitted relative affinity” read 0.807 z-score.
Under “fitted relative affinity”, `TTAGGACTGGGTCTCCGTTAGTGCTAG` is recorded as -0.384 z-score.
For `GACCTTCACCTCTCTGTCCCCGTGCTA`, “fitted relative affinity” read 1.02 z-score.
`TCATCTCTGTTTTTGCTACTGTGCTAG` — result for “fitted relative affinity”: 2.1 z-score.
`GACGATATCGGGACTGGAGACGTGCTA` — result for “fitted relative affinity”: -0.32 z-score.
`GACGATTTCAGTTCCGAGAGGTGCTAG`: “fitted relative affinity” 0.522 z-score.
`GAAGATTTCGGGTATCGAGACGTGCTA`: “fitted relative affinity” 1.39 z-score.
For `TTAGGTTTCGACTTTCGGTTAGTGCTA`, “fitted relative affinity” read 9.12 z-score.
Under “fitted relative affinity”, `TTAGGTTTAGGGACTGGGTTAGTGCTA` is recorded as 0.24 z-score.
`TTAGGTCTCAGTATCGATTAGTGCTAG`: “fitted relative affinity” 5.2 z-score.
Under “fitted relative affinity”, `AGATGTATGAGCCTCTGTTTGTGCTAG` is recorded as -0.147 z-score.
`GACGATATCAGACTGGAAACGTGCTAG`: “fitted relative affinity” -0.366 z-score.
`TCACCTTCACCTCTCTGACTGTGCTAG` — result for “fitted relative affinity”: 1.07 z-score.

Study 2
Target: Prothrombin, mature alpha-thrombin (F2, Homo sapiens, UniProt P00734)
Method: aptamer microarray, sandwich
Form: DNA with 2'F-ANA
Sample: in vitro
Tested at: 200 nM
Notes: whole 15-mer aptamer, many near background
Together with: Cy3 exosite-II aptamer, 400 nM
Reading: higher = stronger binding
Strand: GGTTGGTGTGGTTGG
`2'F-ANA at 1 3 5 6 8 10 13 14`: “mean fluorescence intensity” 46 a.u.
For `2'F-ANA at 2 3 6 7 10 13 14`, “mean fluorescence intensity” read 268 a.u.
Under “mean fluorescence intensity”, `2'F-ANA at 1 2 3 5 7 8 9 12 13 15` is recorded as 87 a.u.
Under “mean fluorescence intensity”, `2'F-ANA at 3 5 6 7 9 10 12 13 14 15` is recorded as 47.5 a.u.
`2'F-ANA at 2 8 9 10 11 12 13` — result for “mean fluorescence intensity”: 142 a.u.
`2'F-ANA at 2 4 5 6 9 11 15` — result for “mean fluorescence intensity”: 56.8 a.u.
For `2'F-ANA at 1 2 3 5 6 7 12 13 14`, “mean fluorescence intensity” read 49.9 a.u.
Under “mean fluorescence intensity”, `2'F-ANA at 5 7 8 11 12 13 14` is recorded as 47.2 a.u.
`2'F-ANA at 1 2 9 10 12 13 15` — result for “mean fluorescence intensity”: 63.7 a.u.
For `2'F-ANA at 3 5 11 13`, “mean fluorescence intensity” read 107 a.u.
`2'F-ANA at 1 2 4 5 6 8 10 14 15` — result for “mean fluorescence intensity”: 60 a.u.
For `2'F-ANA at 2 4 7 9 10 11 14`, “mean fluorescence intensity” read 77.4 a.u.
Under “mean fluorescence intensity”, `2'F-ANA at 1 2 4 5 8 9 11 13 14 15` is recorded as 48.9 a.u.
For `2'F-ANA at 1 2 5 6 8 9 12 14 15`, “mean fluorescence intensity” read 56.5 a.u.
`2'F-ANA at 1 6 8 10 11 13 15` — result for “mean fluorescence intensity”: 53 a.u.
`2'F-ANA at 3 5 8 9 10 12 13`: “mean fluorescence intensity” 169 a.u.
`2'F-ANA at 1 2 6 7 8 9 10 15`: “mean fluorescence intensity” 55.2 a.u.
`2'F-ANA at 1 3 5 7 8 9 10 11 12 13`: “mean fluorescence intensity” 53.9 a.u.
`2'F-ANA at 4 5 8 11 12 13 14`: “mean fluorescence intensity” 50.9 a.u.
Under “mean fluorescence intensity”, `2'F-ANA at 1 2 8 11 12 14` is recorded as 70.7 a.u.
Under “mean fluorescence intensity”, `2'F-ANA at 1 2 3 4 7 9 11 14 15` is recorded as 58.2 a.u.
Under “mean fluorescence intensity”, `2'F-ANA at 2 4 11 14` is recorded as 101 a.u.
`2'F-ANA at 2 6 7 9 10 13`: “mean fluorescence intensity” 104 a.u.
`2'F-ANA at 3 8 11 12 13 14 15`: “mean fluorescence intensity” 547 a.u.
Under “mean fluorescence intensity”, `2'F-ANA at 2 5 6 7 8 9 11 12 13 14 15` is recorded as 59.3 a.u.

Study 3
Target: Fragile X messenger ribonucleoprotein 1, C-terminal low-complexity region (Fmr1, Mus musculus, UniProt P35922)
Method: RNA Bind-n-Seq
Form: RNA
Sample: in vitro
Tested at: 200 nM
Notes: whole 134-nt RNA, ends assumed
Together with: 150 mM LiCl
Baseline: input library
Reading: higher = stronger binding
Library: 7-deaza-guanosine replaces G
All sequences stand within: GGGAGUUCUACAGUCCGACGAUC … UGGAAUUCUCGGGUGUCAAGG
For `ACCAUGCAGGUGGGCAUCUUUGGGAAGUGGGGCAAGGUGGGGAUAGGGAGGGGGGUAACACUUUGGGAACAGGUGGUCCCAGGUCGUUUC`, the log2 enrichment was 0.839.
With `UACUGCUCCUCAGCAGGAAGCGGAUGCUGAGGUGAACACAGAAACACUAAAUAAGUCCUCCCAGGGGAGCUCCUCGAGCACACAAUCAGC` the log2 enrichment was 1.56.
With `AGUCCUGUGCUACACAUCGUAUGUACCGAAUCGGGCCCCCGGGCCCCCGGCCCCCGGAAAGUAUUAUGUUACGCCGUUCGGAUCUGCACU` the log2 enrichment was -0.645.
For `CAAGUCCUGUGCUACACAUCGUAUGUACCGAAUCGGGAGGGUUUGGGUUUUUGGGAAAGUAUUAUGUUACGCCGUUCGGAUCUGCACUUC`, the log2 enrichment was -0.375.
`UAGUAACAGGGGUGAAGAUGCCUUUUGUGAUCCUGAAGAUGAAUGGGAACCCGACAUUACAGAUGCACCAGUUUCUUCACUUUCUAGAAG` has a log2 enrichment of -2.53.
`AGUCCUGUGCUACACAUCGUAUGUACCGAAUCGGGGAAAAGGGGAAAAGGGAAAAGGGAAAGUAUUAUGUUACGCCGUUCGGAUCUGCAC` has a log2 enrichment of -0.0445.
`UUCCUCAAGUCCUGUGCUACACAUCGUAUGUACCGAAUCGGUGGUGGUGGGAAAGUAUUAUGUUACGCCGUUCGGAUCUGCACUUCCAGC` gave a log2 enrichment of 0.901.
`UCCUGUGCUACACAUCGUAUGUACCGAAUCGGGGAAAAAGGGGAAAAAGGGAAAAAGGGGAAAGUAUUAUGUUACGCCGUUCGGAUCUGC` has a log2 enrichment of -0.521.
For `CUCAAGUCCUGUGCUACACAUCGUAUGUACCGAAUCGGCGGGGCGGGGCGGGGAAAGUAUUAUGUUACGCCGUUCGGAUCUGCACUUCCA`, the log2 enrichment was 0.362.
The log2 enrichment of `GUCCUGUGCUACACAUCGUAUGUACCGAAUCGGGAAAAAAAGGGAAAGGGAAAAAGGGAAAGUAUUAUGUUACGCCGUUCGGAUCUGCAC` is reported as 0.279.
For `AAGUCCUGUGCUACACAUCGUAUGUACCGAAUCGGGGAAAGGGGAGGGGUUUGGGGAAAGUAUUAUGUUACGCCGUUCGGAUCUGCACUU`, the log2 enrichment was -0.471.

Study 4
Target: Histone acetyltransferase KAT6A, both winged helices, GST fusion (KAT6A, Homo sapiens, UniProt Q92794, residues 1-181)
Method: protein binding microarray
Form: double-stranded DNA, one strand shown
Sample: in vitro
Tested at: not given
Notes: 8-mer, flanks averaged, mean of 2 arrays, mostly near background
Baseline: not given
Reading: higher = stronger binding
Residues (chain): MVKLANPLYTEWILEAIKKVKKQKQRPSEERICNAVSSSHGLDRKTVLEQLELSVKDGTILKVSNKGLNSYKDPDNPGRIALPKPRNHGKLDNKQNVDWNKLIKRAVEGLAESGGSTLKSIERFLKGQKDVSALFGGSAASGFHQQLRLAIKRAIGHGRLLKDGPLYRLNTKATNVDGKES
`AACCTGTA` has an E-score of -0.126.
`ACACGCGC` has an E-score of 0.317.
`AGCCCCAT` has an E-score of -0.166.
`AGGCTTTC` gave an E-score of -0.082.
With `AACAGATG` the E-score was -0.128.
The E-score of `GACTCTGC` is reported as -0.117.
For `CCTCGTTC`, the E-score was -0.0996.
With `AGAACTAG` the E-score was -0.147.
`CCGAGCGA` gave an E-score of 0.215.
With `GGATGCAC` the E-score was 0.0426.
With `CAGTAGGG` the E-score was -0.175.
With `AGAGAGCT` the E-score was -0.15.
The E-score of `GTTATCAA` is reported as -0.167.
`GGCACCTA` has an E-score of 0.0075.
With `ACACACGC` the E-score was 0.119.
The E-score of `AGTTCTTA` is reported as -0.297.

Repeated from above (study 1):
For `TGAGGTATCGGGTTTCGGTTAGTGCTA`, “fitted relative affinity” read 7.26 z-score.
For `GACGGTTTCGAGACTGGGGACGTGCTA`, “fitted relative affinity” read 6.41 z-score.
For `GAAGGTTCCCTTTTCCTGACGTGCTAG`, “fitted relative affinity” read 0.824 z-score.
For `TTAGGACTGGGTATCGGGTAGTGCTAG`, “fitted relative affinity” read 1.35 z-score.
Under “fitted relative affinity”, `TGAGATCTCAGTTTCGATTAGTGCTAG` is recorded as 8.87 z-score.
Under “fitted relative affinity”, `TTGTGTCTGGGCTTTTTCCCCGTGCTA` is recorded as -0.728 z-score.
`GACGGACTCGGTCTCGGGACGTGCTAG`: “fitted relative affinity” 0.248 z-score.
For `TATGGTATTTTTTTCTAATTGTGCTAG`, “fitted relative affinity” read 0.807 z-score.
Under “fitted relative affinity”, `TTAGGACTGGGTCTCCGTTAGTGCTAG` is recorded as -0.384 z-score.
